# Experimental data from different studies.
# “And” joins repeats or separate records; there may be more than shown. ± gives the spread as reported.
# SLC6A3: Sodium-dependent dopamine transporter (SLC6A3, Homo sapiens, UniProt Q01959)
# kasA: 3-oxoacyl-[acyl-carrier-protein] synthase 1 (kasA, Mycobacterium tuberculosis, UniProt P9WQD9)
# 4'-phosphopantetheinyl transferase PptT: 4'-phosphopantetheinyl transferase PptT (Mycobacterium tuberculosis, UniProt O33336)
# Oprm1: Mu-type opioid receptor (Oprm1, Rattus norvegicus, UniProt P33535)
# cydA with subunit CydB: cydA, with subunit CydB (Mycobacterium tuberculosis, UniProt L7N662)
SMILES,target,assay,test system,setting,how to read,measurement,value
CNC1(c2ccccc2Cl)CCCCC1=O (racemic),SLC6A3,"radioligand binding, antagonist, radioligand displacement",,30 µM,,inhibition,22%
CC(C)n1ncc2ccc(NS(=O)(=O)c3ccc(CCC(=O)O)cc3)cc21,kasA,"thermal stabilization, nanoDSF",,100 µM,,ΔTm,-0.21 °C
Clc1cc(Cl)cc(N2CCNCC2)c1,"CHRM1 (Homo sapiens, UniProt P11229)","ERK1/2 phosphorylation, agonist",CHO cells,,,Emax,< 10%
O=C1c2c(O)ccc(O)c2C(=O)c2c(NCCNCCO)ccc(NCCNCCO)c21,4'-phosphopantetheinyl transferase PptT,inhibitor,,concentration not given,,enzyme activity,inactive
Cc1nc2ccc(CN(C)c3ccc(C(=O)N[C@@H](CCC(=O)O)C(=O)O)s3)cc2c(=O)[nH]1,4'-phosphopantetheinyl transferase PptT,"enzyme activity, inhibitor, fluorescence polarisation",,,,Hill slope,1.4
CN1CC[C@@]2(C)c3cc(OC(=O)Nc4ccccc4)ccc3N(C)[C@@H]12,human nicotinic α4β2 receptor,radioligand binding,,"10 µM, together with: [3H]epibatidine",,inhibition,0.1%
CCC[C@H](C(=O)c1ccc(C)cc1)N1CCCC1,SLC6A3,"DAT-mediated current recovery, electrophysiology",human DAT-expressing cells,"100 µM, together with: 30 µM dopamine",,koff,1.73 s⁻¹
O=c1c2cc(Cl)ccc2[nH]c(=S)n1Cc1cccnc1,4'-phosphopantetheinyl transferase PptT,"enzyme activity, inhibitor",,"100 µM, 2 h, room temperature, before dialysis, 10 µM enzyme",,activity loss,76%
CCn1ncc2ccc(NS(=O)(=O)c3ccc(NC(=O)C(F)(F)F)cc3)cc21,kasA,"thermal stabilization, nanoDSF",,100 µM,,ΔTm,-0.2 °C
O=C(c1ccc(Cl)cc1)N1CCN2C(=O)N(OC(=O)N3CCOc4ccccc43)C(=O)C2C1 (centres unmarked),"Acyl-protein thioesterase 1 (Homo sapiens, UniProt O75608)",MS-based ABPP,SW-620 conditioned medium,"10 µM, 1 h, 37 °C","baseline: compound over DMSO, lower = more inhibition",mean protein ratio,0.94
COc1ccc(N2C(=O)N(c3c(C)cccc3Cl)Cc3cnc(Nc4ccc(C5CCN(C)CC5)cc4OC)nc32)nc1,"PIK3CD (Homo sapiens, UniProt O00329)","kinase activity, inhibitor",,"0.5 µM, kinase PI3K-DELTA",,inhibition,9%
"COC(=O)C1C(OC(=O)c2ccccc2)CC2CCC1N2C (single isomer, unassigned; (-))","Sodium channel protein type 4 alpha, BTX-activated (Oryctolagus cuniculus, UniProt G1SLL9)",,rabbit,,,apparent off-rate,~60 s⁻¹
CC(NC(C)(C)C)C(=O)c1ccccc1 (centres unmarked),"Slc6a4 (Rattus norvegicus, UniProt P31652)",binding,rat,dose not given,,activity,inactive
Oc1cccc([C@]23CCC[C@H]([C@H]2O)N(CC=Cc2ccccc2)CC3)c1,Oprm1,agonist,C6 cells,,baseline: delta over mu opioid receptor,selectivity ratio,133
C/C1=C2/[N-]C([C@H](CC(N)=O)[C@@]2(C)CCC(=O)NC[C@@H](C)OP(=O)([O-])O[C@H]2[C@@H](O)[C@@H](n3cnc4cc(C)c(C)cc43)O[C@@H]2CO)[C@]2(C)N=C(/C(C)=C3N=C(/C=C4N=C1[C@@H](CCC(N)=O)C\4(C)C)[C@@H](CCC(N)=O)[C@]\3(C)CC(N)=O)[C@@H](CCC(N)=O)[C@]2(C)CC(N)=O.[CH2-][C@H]1O[C@@H](n2cnc3c(N)ncnc32)[C@@H](O)[C@@H]1O.[Co+3],"Probable methylmalonyl-CoA mutase large subunit (mutB, Mycobacterium tuberculosis, UniProt P9WJK5)",cofactor,,,,specific activity,35.4 ± 0.5 µmol/min/mg
CCCCCCCC[C@H]1O[C@H]1C/C=C/C=C/[C@H](O)CC(=O)NC1=C[C@](C)(CC)OC1=O,"Na(+)-translocating NADH-quinone reductase subunit B, whole Na+-NQR complex (nqrB, Vibrio cholerae serotype O1, UniProt Q9KPS2)",isothermal titration calorimetry,,20 °C,,ΔG,-10 kcal/mol
COc1c(O)c(C)c(C/C=C(\C)CCC=C(C)C)c(O)c1OC,cydA with subunit CydB,biochemical,,,,specific activity,8.7 ± 2.5 µmol/min/mg
CCCC(C(=O)c1ccc2c(c1)OCO2)N1CCCC1 (centres unmarked),SLC6A3,"endogenous leak current, inhibitor, two-electrode voltage clamp",Xenopus oocytes expressing hDAT,"0.01 to 30 µM, -60 mV",baseline: dopamine pre-pulse peak current,remaining current,32.9 ± 1.9%
CCc1nc2ccc(Cl)cn2c1C(=O)NC1CC12CCOCC2 (centres unmarked),kasA,"thermal stabilization, nanoDSF",,100 µM,,ΔTm,-0.13 °C
Oc1ccc2c3c1O[C@H]1[C@@H](O)CC[C@@]4(O)[C@@H](C2)N(CC2CCC2)CC[C@]314,"MRGPRX2 (Homo sapiens, UniProt Q96LB1)","β-arrestin recruitment, TANGO luminescence",,concentration not given,baseline: basal luminescence,log2 fold change,-0.257
CCCC(C(=O)c1ccc2c(c1)OCO2)N1CCCC1 (centres unmarked),SLC6A3,"transporter current, inhibitor, electrophysiology",human DAT-expressing cells,"100 µM, current recovery, together with: dopamine 30 µM",,koff,0.65 s⁻¹
Cl.O=C(O)CCNC1CCN(c2ccc(OC(F)(F)F)cc2)CC1,kasA,"thermal stabilization, nanoDSF",,100 µM,,ΔTm,-0.21 °C
c1ccc2cc([C@]34CNC[C@H]3C4)ccc2c1,SLC6A3,"inhibitor, [3H]dopamine uptake",,1 µM,baseline: no inhibitor,dopamine uptake,17.3% and 12.7% and 12.2%
NCCc1ccccc1,"Trace amine-associated receptor 1, with DAT (Macaca mulatta, UniProt Q8HZ64)","CRE-luciferase reporter, agonist",TAAR1-DAT co-expressing cells,"10 µM, 18 h",baseline: vehicle,reporter activity,1750%
CCc1nc2ccc(Cl)cn2c1C(=O)NCC1(OC)CCOCC1,kasA,"thermal stabilization, nanoDSF",,100 µM,,ΔTm,-0.18 °C
CCCCCCCCCCc1c(C)c(O)c(OC)c(OC)c1O,cydA with subunit CydB,biochemical,,,,specific activity,9 µmol/min/mg and 5.1 µmol/min/mg
C=CCN1CC[C@]23c4c5ccc(O)c4O[C@H]2C(=O)CC[C@]3(O)[C@H]1C5,"Glutamate receptor ionotropic, NMDA 1, glycine site (GRIN1, Homo sapiens, UniProt Q05586)",,,concentration not given,,inhibition,5.7%
Nc1nc2c(ncn2[C@@H]2O[C@H](COP(=O)(O)OP(=O)(O)O)[C@@H](O)[C@H]2O)c(=O)[nH]1,"uncharacterized protein (Vibrio cholerae, UniProt A0A0X1KYD0)","nucleotide binding, isothermal titration calorimetry",,"concentration not given, no Mg2+",,binding stoichiometry,~1
CC(NC(C)(C)C)C(=O)c1cccc(Cl)c1 (centres unmarked),"Voltage-dependent P/Q-type calcium channel subunit alpha-1A (Homo sapiens, UniProt O00555)","ion current, antagonist",HEK293,10 µM,,inhibition,24%
Oc1ccc2c3c1O[C@H]1c4oc5ccccc5c4C[C@@]4(O)[C@@H](C2)N(CC2CC2)CC[C@]314,"Trpm7 (Mus musculus, UniProt Q923J1, F924W)","Ca2+ influx, activator, aequorin",HEK-293T,,,Hill coefficient,1.07 ± 0.08
Cc1[nH]c2ccccc2c(=O)c1-c1ccc(Oc2ccc(OC(F)(F)F)cc2)cc1,cydA with subunit CydB,"enzyme activity, biochemical",,,,Km,8.7 ± 1.6 µM
NCCc1ccc(Oc2ccc(O)cc2)c(I)c1,"Trace amine-associated receptor 1 (Macaca mulatta, UniProt Q8HZ64)","CRE-luciferase reporter, agonist",TAAR1-expressing cells,"10 µM, 18 h",baseline: vehicle,reporter activity,680%
CCn1ncc2ccc(NS(=O)(=O)c3c(F)c(F)cc(F)c3F)cc21,kasA,"thermal stabilization, nanoDSF",,100 µM,,ΔTm,0.18 °C
COc1c(O)c(C)c(CC=C(C)C)c(O)c1OC,cydA with subunit CydB,"enzyme activity, biochemical",,,,Km,51.6 ± 8.9 µM
CCn1ncc2ccc(NS(=O)(=O)c3ccc(OC)c(OC)c3)cc21,kasA,"thermal stabilization, nanoDSF",,100 µM,,ΔTm,-0.15 °C
O=[N+]([O-])c1ccc(CCN2CC[C@@]3(c4cccc(O)c4)CCC[C@@H]2[C@H]3O)cc1,Oprm1,agonist,C6 cells,,baseline: delta over mu opioid receptor,selectivity ratio,~850
CCn1ncc2ccc(NS(=O)(=O)c3ccc(C)c(C(=O)O)c3)cc21,kasA,"thermal stabilization, nanoDSF",,100 µM,,ΔTm,-0.32 °C
C[C@H]1CN(c2n[nH]c3nc(N[C@H]4CC[C@H](NS(=O)(=O)CCC(F)(F)F)CC4)ncc23)CCO1,"CHEK1 (Homo sapiens, UniProt O14757)","inhibitor, Kinobeads competition profiling",,0.8 µM,baseline: vehicle,relative abundance,1.04

# Excerpt of the above:
SMILES,target,assay,test system,setting,how to read,measurement,value
c1ccc2cc([C@]34CNC[C@H]3C4)ccc2c1,SLC6A3,"inhibitor, [3H]dopamine uptake",,1 µM,baseline: no inhibitor,dopamine uptake,17.3% and 12.7% and 12.2%
CCn1ncc2ccc(NS(=O)(=O)c3ccc(NC(=O)C(F)(F)F)cc3)cc21,kasA,"thermal stabilization, nanoDSF",,100 µM,,ΔTm,-0.2 °C
Nc1nc2c(ncn2[C@@H]2O[C@H](COP(=O)(O)OP(=O)(O)O)[C@@H](O)[C@H]2O)c(=O)[nH]1,"uncharacterized protein (Vibrio cholerae, UniProt A0A0X1KYD0)","nucleotide binding, isothermal titration calorimetry",,"concentration not given, no Mg2+",,binding stoichiometry,~1
